Measurements of several laboratories.
Numbered parts are unrelated; each lists some results of a single study. Positions count from the first letter of the parent shown.

Block 1
Target: Phosphate system positive regulatory protein PHO4, full length, GST-tagged (PHO4, Saccharomyces cerevisiae, UniProt P07270, residues 1-312)
Technique: competition protein-binding microarray
Form: double-stranded DNA, one strand shown
Matrix: in vitro
Concentration: 2 µM
Setting: whole 60-bp probe, lowest competitor level
Added: Cbf1 competitor, 0.05 µM
Direction: higher = stronger binding
Constant ends, left off below: … GTCTTGATTCGCTTGACGCTGCTG
Construct (chain): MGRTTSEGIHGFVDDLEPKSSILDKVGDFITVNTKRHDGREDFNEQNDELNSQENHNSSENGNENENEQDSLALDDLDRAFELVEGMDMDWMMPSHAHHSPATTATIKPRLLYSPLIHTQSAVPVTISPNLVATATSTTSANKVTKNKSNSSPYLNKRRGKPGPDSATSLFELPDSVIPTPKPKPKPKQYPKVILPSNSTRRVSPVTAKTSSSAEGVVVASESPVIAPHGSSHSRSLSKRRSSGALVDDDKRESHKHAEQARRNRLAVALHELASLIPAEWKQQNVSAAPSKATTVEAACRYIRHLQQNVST
| Sequence | fluorescence intensity [a.u.] |
| --- | --- |
| AAAGCGGTAATTTGGCGTGTGGGTGCAGATATCTAT | 6540 |
| ATATCTCATGTAACAAACGTGAAAAAAGCGATGATT | 7740 |
| TGCGCAACAACTTGCGTTGTGGGTGTATGTCTAGAA | 4720 |
| AAGTTTTTTTCTACACGCATGAGCAGAATTAGACGG | 7350 |
| AGGCAGCAATATTGGCGTGTGCCGCTGAATACATTC | 6990 |
| GTAATATAGCTTTGCCACGTGCGATTTTTGGGGATA | 20700 |
| CGGGCGTATTGAGCCCTCGTGCTGTCTGGATGCACC | 13000 |
| CAACGAGCTCTTTGCCACGTATCAACTGGAGAAGAG | 6230 |
| CTAACGAAGGTTTGTAATGTGGGTGACAAGCCAAGT | 4320 |
| GATGAGGCCCTTATGTACGTGCAAATATATGTGCGA | 7190 |
| GACTTTTCGAGCCTTTATGACCGGATAAAAAGCCTA | 2420 |
| CGGGGTTAAGTTTGAGACGTGGGTGGCTTGCAGCAG | 6620 |
| CGTCCTAGTGATTGTTCAGTGGGTGCCATGAGGAAG | 6100 |
| GTATGCACCATCTTTCATGTGGGAAATAAGCTTTTT | 5390 |
| AAATTACTAAGTTGAACAGTGGGTGACGCCGTATGA | 3800 |
| CATACCCAACCTTTTCACGTGAGCTAAGATATTTGT | 11700 |
| AAAGCGGTAATTTGTCACCCGACTTCACATATCTAT | 3210 |
| TAGTATCTTGCATTGCACGGGCTTTATATTGAGCAA | 9170 |

Block 2
Target: CCNB3, cyclin fold, Cln2 fusion (human)
Technique: yeast growth competition, sequencing
Matrix: yeast
Setting: weak parent motif
Relative to: not given
Direction: higher = stronger binding
Starting sequence: MICAL3 docking peptide (human); LQLRRQLSFSEDS; partner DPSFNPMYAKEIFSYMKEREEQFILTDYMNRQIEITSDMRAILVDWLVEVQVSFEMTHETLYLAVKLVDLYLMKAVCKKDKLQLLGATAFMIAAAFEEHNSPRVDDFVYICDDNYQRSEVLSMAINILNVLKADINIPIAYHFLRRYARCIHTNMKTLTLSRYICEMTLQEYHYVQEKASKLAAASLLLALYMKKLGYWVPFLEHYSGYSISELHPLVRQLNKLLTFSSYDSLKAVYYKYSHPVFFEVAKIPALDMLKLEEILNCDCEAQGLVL
| Change | normalised enrichment score |
| --- | --- |
| Q6H | -0.108 |
| L7N | -0.138 |
| F9W | 0.144 |
| Q6W | 0.297 |
| R4F | 0.598 |
| S8V | 0.283 |
| S10F | 0.228 |
| Q6R | 0.813 |
| S10E | 0.252 |
| S8L | 0.513 |
| E11F | -0.00764 |
| S8P | 0.0425 |
| L3F | 0.284 |
| L7E | 0.347 |
| E11S | 0.149 |
| S8D | 0.126 |
| R5L | 0.000814 |
| S8I | 0.395 |
| D12P | 0.337 |
| L7W | 0.15 |
| L7F | -0.394 |
| S10G | 0.474 |
| S10H | -0.118 |
| L3D | 0.0434 |
| S8M | 0.154 |

Block 3
Target: Interferon regulatory factor 5, full length, phosphomimetic (IRF5, Homo sapiens, UniProt Q13568-2, residues 1-514, S451D/S453D/S456D/S462D)
Technique: protein-binding microarray
Form: double-stranded DNA, one strand shown
Matrix: in vitro
Concentration: 940 nM top
Setting: 60-bp whole probe
Added: salmon DNA 0.4 mg/ml
Relative to: random background probes
Direction: higher = stronger binding
Constant ends, left off below: GCCTAGCAC … GTCTTGATTCGCTTGACGCTGCTG
| Sequence | fitted relative affinity |
| --- | --- |
| TAGTTTTACTTTCTATCTCTGTGCTAG | 3.34 z-score |
| TCACATACTAGTTTCCAACTGTGCTAG | 0.602 z-score |
| GACGGTTGCGACACTGGGGACGTGCTA | 0.0965 z-score |
| TTAAGTATCGACTATCGGTTAGTGCTA | 6.15 z-score |
| GACGGTATCGGTTTAGGGACGTGCTAG | 8.45 z-score |
| TTAGCTCTCAGTTTCGATTAGTGCTAG | 8.52 z-score |
| GACGGTATCGGACTGCGGACGTGCTAG | 2.84 z-score |
| GACGGACTGGTTCTCGGGACGTGCTAG | -0.0154 z-score |
| TTAGGTATCCGGTTTCGGTTAGTGCTA | 6.78 z-score |
| CTGACCTTTTCCTGAGGCAGGTGCTAG | 1.9 z-score |
| TTAGGGATCGGGTATCGGTTAGTGCTA | 3.32 z-score |
| GACGGACTTCTTCTCCTGACGTGCTAG | 0.245 z-score |
| GACGGTAACCTACTGCTGACGTGCTAG | -0.295 z-score |
| TCAATTTTAGTTTTCATACTGTGCTAG | 1.46 z-score |
| GACGGACTGCTACTGCTGCCGTGCTAG | -0.547 z-score |
| TCACTTATCCAATCAGAACTGTGCTAG | 0.353 z-score |

Block 4
Target: Sal-like protein 4, full length isoform A (SALL4, Homo sapiens, UniProt Q9UJQ4, residues 1-1053)
Sequence of UniProt Q9UJQ4 (whole entry, looked up): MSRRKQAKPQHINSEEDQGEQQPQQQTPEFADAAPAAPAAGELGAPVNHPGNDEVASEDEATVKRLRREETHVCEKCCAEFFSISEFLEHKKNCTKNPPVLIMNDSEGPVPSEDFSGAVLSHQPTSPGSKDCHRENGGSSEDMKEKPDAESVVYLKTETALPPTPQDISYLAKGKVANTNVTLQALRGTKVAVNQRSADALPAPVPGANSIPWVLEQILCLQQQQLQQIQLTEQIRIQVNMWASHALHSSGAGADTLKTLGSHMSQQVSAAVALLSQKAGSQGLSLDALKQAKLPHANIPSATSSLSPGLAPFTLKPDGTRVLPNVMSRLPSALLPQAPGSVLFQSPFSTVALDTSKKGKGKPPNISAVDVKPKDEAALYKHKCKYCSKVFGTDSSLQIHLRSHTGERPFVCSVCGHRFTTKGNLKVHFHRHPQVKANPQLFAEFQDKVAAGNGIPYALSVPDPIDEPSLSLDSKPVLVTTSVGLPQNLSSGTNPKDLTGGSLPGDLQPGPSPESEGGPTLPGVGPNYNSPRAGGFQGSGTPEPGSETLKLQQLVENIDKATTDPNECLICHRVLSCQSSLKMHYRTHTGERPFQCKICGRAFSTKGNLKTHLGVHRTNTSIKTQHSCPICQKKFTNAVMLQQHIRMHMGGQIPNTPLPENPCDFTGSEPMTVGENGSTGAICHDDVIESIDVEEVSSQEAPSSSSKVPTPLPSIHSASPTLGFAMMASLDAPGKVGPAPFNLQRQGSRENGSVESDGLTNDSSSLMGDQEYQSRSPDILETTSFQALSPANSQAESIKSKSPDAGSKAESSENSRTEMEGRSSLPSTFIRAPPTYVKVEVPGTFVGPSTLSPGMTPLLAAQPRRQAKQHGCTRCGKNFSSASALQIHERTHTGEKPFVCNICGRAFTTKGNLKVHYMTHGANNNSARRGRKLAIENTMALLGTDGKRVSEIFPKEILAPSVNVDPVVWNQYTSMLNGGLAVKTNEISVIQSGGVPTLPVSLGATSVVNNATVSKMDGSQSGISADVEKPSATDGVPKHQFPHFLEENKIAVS
Technique: universal PBM
Form: double-stranded DNA, one strand shown
Matrix: in vitro
Concentration: 600 nM
Setting: 8-mer, flanks averaged, mean of replicates
Direction: higher = stronger binding
| Sequence | E-score |
| --- | --- |
| CGATCCGA | -0.265 |
| CTGCAATC | 0.0383 |
| CGATCGCG | -0.00722 |
| ATTGTGAG | 0.143 |
| CAACCATA | 0.216 |
| AGCATGGG | -0.113 |
| AGGCCTAA | -0.0664 |
| ACACCAAA | 0.152 |
| AGGTAGCC | -0.317 |
| CATATCGC | 0.118 |
| ACCTATAA | 0.3 |
| GACTAAAC | -0.121 |
| TAGTAGAA | 0.123 |
| ACGCAGAC | -0.0993 |
| ACCGCGTC | -0.211 |
| AACATGCA | 0.246 |

Block 5
Target: Protein C-ets-1 (ETS1, Homo sapiens, UniProt P14921, residues 1-441, full length assumed)
Technique: protein-binding microarray
Form: double-stranded DNA, one strand shown
Matrix: in vitro
Concentration: not given
Setting: k-mer, scored over probes, only values ≥0.25
Direction: higher = stronger binding
Construct (chain): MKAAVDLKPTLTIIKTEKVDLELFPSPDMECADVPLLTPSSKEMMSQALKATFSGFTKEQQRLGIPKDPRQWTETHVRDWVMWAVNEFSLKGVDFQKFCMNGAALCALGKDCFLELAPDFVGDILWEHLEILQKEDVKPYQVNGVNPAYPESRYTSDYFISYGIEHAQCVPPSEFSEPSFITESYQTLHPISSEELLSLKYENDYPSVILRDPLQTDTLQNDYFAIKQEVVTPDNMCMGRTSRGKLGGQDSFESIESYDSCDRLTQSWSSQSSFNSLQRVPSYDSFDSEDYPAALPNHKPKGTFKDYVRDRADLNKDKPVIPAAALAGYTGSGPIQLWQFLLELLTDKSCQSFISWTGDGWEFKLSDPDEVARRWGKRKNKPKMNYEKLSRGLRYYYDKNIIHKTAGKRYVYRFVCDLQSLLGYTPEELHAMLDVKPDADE
| Sequence | E-score |
| --- | --- |
| CATATCCC | 0.307 |
| CTCCGGTC | 0.294 |
| ATCCGTTG | 0.365 |
| GAGGATAC | 0.252 |
| ACTTCCGA | 0.462 |
| CCCAGTTC | 0.261 |
| CCGGAAAC | 0.491 |
| CCGGGTAC | 0.31 |
| TACGGGAA | 0.28 |
| ATCCGTCG | 0.331 |
| CCACGTCC | 0.323 |
| GATATATC | 0.327 |
| GGAAGCCC | 0.252 |
| AATACGGA | 0.258 |
| AGGAAGGG | 0.4 |
| CATCCCCC | 0.314 |
| ATCCGCCC | 0.417 |
| GTAGGAAA | 0.366 |
| GAGGATGC | 0.322 |
| ACCGGCGG | 0.319 |
| CTCGGAAA | 0.302 |
| ACCCTCCC | 0.278 |
| AGGATGTA | 0.441 |
| CCTTCCCA | 0.271 |
| GAGTTTCC | 0.379 |

Block 6
Target: Histone acetyltransferase KAT6A, winged helix 2, GST fusion (KAT6A, Homo sapiens, UniProt Q92794, residues 85-181)
Technique: protein binding microarray
Form: double-stranded DNA, one strand shown
Matrix: in vitro
Concentration: not given
Setting: 8-mer, flanks averaged, mean of 2 arrays, mostly near background
Relative to: not given
Direction: higher = stronger binding
Residues (chain): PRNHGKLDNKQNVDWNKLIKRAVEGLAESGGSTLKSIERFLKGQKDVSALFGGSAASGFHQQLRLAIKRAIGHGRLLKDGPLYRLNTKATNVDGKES
| Sequence | E-score |
| --- | --- |
| ACCCTATA | -0.217 |
| AACGAAGA | -0.0345 |
| TAAGCAAA | 0.0086 |
| CATGAACA | -0.0447 |
| CCAAGGCC | -0.0387 |
| CGTAGGGA | -0.00379 |
| CATGGTGC | 0.0487 |
| ACCAGGGC | -0.0628 |
| GCGTGTAA | -0.0948 |
| CGCAATCA | 0.165 |
| AGCAAGAT | 0.0844 |
| CAGCGATA | -0.0518 |
| TACGCGGA | 0.157 |
| ACCCAGTG | -0.091 |
| CCAAACCA | -0.0462 |
| CCTCGCCC | 0.0914 |
| ATGTGAAA | -0.0407 |
| AGCAGCTG | -0.00662 |
| CCGTAAGG | -0.0742 |
| GTTACCAA | 0.0469 |
| GATATTAC | 0.00917 |
| ACACCCTG | 0.132 |
| AGACACCC | -0.0785 |
| AATGGCGT | -0.018 |

Excerpt of the above (block 5):
| Sequence | E-score |
| --- | --- |
| CCACGTCC | 0.323 |
| ATCCGCCC | 0.417 |
| CCTTCCCA | 0.271 |
| ACCGGCGG | 0.319 |
| AGGAAGGG | 0.4 |
| ATCCGTCG | 0.331 |
| AATACGGA | 0.258 |
| AGGATGTA | 0.441 |
| GAGTTTCC | 0.379 |
| ACTTCCGA | 0.462 |
| CTCCGGTC | 0.294 |
| GAGGATGC | 0.322 |
| ATCCGTTG | 0.365 |
| CTCGGAAA | 0.302 |
| ACCCTCCC | 0.278 |
